Assay results from different studies.
Values joined by “and” are separate records of one study, mostly repeats; a detail may differ.
AMY2: Pancreatic alpha-amylase (AMY2, Sus scrofa, UniProt P00690)
Chain of UniProt P00690 (whole entry, looked up): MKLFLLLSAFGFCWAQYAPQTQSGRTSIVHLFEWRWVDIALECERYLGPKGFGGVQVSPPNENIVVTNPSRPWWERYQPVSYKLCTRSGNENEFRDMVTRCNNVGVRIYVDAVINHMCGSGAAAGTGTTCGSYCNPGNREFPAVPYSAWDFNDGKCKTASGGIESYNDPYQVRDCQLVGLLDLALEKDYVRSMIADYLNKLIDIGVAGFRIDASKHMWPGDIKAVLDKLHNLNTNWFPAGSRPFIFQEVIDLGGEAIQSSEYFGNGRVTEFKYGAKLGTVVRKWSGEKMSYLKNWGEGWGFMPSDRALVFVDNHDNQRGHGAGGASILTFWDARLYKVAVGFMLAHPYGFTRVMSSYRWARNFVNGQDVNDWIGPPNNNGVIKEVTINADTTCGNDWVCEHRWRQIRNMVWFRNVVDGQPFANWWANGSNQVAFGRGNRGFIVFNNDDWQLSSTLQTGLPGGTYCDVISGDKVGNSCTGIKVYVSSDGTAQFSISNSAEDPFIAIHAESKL
CA9: Carbonic anhydrase 9 (CA9, Homo sapiens, UniProt Q16790)
rep papain-like protease: Replicase polyprotein 1ab, papain-like protease (rep, Porcine epidemic diarrhea virus, UniProt P0C6Y4)
CHEK1: Serine/threonine-protein kinase Chk1 (CHEK1, Homo sapiens, UniProt O14757)
Chain of UniProt O14757 (whole entry, looked up): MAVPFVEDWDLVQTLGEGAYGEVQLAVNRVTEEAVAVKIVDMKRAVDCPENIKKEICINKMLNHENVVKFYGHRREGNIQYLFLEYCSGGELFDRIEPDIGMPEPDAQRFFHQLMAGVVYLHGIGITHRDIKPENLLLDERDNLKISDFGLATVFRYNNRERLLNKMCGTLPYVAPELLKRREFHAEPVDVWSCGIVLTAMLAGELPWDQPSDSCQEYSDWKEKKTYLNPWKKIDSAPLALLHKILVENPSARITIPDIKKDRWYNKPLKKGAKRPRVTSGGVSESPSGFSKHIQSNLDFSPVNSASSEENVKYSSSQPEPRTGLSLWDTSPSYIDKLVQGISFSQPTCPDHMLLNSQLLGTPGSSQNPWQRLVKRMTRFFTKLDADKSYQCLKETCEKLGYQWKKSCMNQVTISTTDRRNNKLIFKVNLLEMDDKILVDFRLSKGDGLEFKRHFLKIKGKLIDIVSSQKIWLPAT
PIK3CD: Phosphatidylinositol 4,5-bisphosphate 3-kinase catalytic subunit delta isoform (PIK3CD, Homo sapiens, UniProt O00329)
Chain of UniProt O00329 (whole entry, looked up): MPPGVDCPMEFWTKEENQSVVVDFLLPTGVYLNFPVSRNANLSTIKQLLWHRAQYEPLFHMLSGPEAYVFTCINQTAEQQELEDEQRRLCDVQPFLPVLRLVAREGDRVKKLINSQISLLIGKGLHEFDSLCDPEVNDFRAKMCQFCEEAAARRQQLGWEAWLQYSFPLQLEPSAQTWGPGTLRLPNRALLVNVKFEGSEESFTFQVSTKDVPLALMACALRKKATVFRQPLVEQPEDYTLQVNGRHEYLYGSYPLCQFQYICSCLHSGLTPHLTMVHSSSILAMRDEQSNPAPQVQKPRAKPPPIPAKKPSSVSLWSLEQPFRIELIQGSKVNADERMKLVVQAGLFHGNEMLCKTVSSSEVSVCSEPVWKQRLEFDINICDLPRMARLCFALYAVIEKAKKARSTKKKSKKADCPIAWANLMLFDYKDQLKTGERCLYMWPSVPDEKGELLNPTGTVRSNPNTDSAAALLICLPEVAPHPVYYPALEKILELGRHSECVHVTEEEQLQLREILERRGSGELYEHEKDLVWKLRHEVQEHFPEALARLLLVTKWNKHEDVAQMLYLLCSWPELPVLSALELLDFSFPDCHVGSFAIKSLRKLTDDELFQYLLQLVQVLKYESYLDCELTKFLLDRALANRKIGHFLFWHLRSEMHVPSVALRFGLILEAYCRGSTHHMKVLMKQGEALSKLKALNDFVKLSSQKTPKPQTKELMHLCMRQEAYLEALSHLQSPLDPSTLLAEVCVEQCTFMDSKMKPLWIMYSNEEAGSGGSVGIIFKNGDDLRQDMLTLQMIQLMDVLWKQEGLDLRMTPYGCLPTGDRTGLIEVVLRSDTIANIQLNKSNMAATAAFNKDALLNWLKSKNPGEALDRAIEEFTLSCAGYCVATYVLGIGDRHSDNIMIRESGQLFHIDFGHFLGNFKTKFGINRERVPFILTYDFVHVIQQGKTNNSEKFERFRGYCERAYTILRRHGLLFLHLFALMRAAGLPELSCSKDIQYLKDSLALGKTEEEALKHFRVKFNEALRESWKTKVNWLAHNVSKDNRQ
CDK4 with cyclin D1: Cyclin-dependent kinase 4, with cyclin D1 (CDK4, Homo sapiens, UniProt P11802)
Chain of UniProt P11802 (whole entry, looked up): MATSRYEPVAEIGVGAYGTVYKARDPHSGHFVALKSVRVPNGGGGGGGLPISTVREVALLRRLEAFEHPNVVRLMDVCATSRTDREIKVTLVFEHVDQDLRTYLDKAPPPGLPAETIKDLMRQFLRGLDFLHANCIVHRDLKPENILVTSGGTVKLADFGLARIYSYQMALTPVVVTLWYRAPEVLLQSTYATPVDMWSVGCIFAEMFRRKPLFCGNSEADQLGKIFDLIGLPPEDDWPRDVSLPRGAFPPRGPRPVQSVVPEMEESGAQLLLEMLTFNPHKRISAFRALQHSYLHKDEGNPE
PIK3CA: Phosphatidylinositol 4,5-bisphosphate 3-kinase catalytic subunit alpha isoform (PIK3CA, Homo sapiens, UniProt P42336)
Chain of UniProt P42336 (whole entry, looked up): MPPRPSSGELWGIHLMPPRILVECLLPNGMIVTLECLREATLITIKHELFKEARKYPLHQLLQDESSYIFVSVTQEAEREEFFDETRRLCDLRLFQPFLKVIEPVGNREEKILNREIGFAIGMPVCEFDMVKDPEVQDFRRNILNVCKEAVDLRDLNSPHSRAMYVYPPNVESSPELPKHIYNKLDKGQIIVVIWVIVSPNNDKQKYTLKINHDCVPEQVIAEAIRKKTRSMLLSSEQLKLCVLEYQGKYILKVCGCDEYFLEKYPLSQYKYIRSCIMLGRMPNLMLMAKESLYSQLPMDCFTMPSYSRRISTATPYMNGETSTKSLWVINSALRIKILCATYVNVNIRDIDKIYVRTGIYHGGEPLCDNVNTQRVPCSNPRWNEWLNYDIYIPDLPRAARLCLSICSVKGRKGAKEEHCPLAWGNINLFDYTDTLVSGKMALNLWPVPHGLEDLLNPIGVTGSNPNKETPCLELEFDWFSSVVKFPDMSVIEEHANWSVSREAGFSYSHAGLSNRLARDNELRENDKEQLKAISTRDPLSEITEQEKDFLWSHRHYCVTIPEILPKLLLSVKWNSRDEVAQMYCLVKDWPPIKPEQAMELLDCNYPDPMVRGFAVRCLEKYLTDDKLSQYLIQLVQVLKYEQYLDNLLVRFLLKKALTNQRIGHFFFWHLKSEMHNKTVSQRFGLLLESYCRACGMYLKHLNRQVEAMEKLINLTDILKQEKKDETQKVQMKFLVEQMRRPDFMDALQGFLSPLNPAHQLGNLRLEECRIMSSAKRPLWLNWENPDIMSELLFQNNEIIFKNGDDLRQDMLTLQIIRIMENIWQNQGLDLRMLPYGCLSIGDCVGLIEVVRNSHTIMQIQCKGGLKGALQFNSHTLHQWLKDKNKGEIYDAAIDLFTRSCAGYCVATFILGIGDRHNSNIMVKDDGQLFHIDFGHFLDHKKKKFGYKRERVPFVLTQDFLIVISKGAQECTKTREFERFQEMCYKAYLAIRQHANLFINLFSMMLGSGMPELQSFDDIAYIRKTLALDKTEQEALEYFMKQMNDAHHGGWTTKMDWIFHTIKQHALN
PIK3CG: Phosphatidylinositol 4,5-bisphosphate 3-kinase catalytic subunit gamma isoform (PIK3CG, Homo sapiens, UniProt P48736)
Chain of UniProt P48736 (whole entry, looked up): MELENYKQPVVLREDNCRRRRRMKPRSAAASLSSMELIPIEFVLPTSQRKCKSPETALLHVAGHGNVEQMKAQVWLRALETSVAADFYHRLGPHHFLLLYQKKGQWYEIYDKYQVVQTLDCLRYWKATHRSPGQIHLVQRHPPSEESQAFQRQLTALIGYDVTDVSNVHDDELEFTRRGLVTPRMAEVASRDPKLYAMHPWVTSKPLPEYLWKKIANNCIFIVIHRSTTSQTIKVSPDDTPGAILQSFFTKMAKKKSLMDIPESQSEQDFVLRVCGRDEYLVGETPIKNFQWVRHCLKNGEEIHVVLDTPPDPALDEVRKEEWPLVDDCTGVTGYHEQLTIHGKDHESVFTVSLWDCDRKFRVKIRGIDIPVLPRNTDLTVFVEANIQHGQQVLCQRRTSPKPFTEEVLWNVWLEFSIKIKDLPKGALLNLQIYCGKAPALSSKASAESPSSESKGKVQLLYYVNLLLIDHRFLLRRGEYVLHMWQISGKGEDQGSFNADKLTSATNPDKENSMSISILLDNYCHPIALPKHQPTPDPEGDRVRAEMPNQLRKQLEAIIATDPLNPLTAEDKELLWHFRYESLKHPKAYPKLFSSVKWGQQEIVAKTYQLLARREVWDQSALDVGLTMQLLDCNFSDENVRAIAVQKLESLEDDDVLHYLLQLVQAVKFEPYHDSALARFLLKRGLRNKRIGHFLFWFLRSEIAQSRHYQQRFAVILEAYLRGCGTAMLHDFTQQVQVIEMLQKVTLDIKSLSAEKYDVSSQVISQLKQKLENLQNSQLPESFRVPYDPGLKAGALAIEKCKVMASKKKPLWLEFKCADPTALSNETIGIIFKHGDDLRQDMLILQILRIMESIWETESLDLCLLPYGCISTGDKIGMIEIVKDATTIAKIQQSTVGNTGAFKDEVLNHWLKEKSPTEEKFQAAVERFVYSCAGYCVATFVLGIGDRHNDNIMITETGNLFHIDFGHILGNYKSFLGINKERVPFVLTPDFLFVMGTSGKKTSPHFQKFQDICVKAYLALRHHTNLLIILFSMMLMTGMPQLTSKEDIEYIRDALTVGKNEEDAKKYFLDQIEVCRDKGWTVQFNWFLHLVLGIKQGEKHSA
DYRK1A: Dual specificity tyrosine-phosphorylation-regulated kinase 1A (DYRK1A, Homo sapiens, UniProt Q13627)
Chain of UniProt P33261 (whole entry, looked up): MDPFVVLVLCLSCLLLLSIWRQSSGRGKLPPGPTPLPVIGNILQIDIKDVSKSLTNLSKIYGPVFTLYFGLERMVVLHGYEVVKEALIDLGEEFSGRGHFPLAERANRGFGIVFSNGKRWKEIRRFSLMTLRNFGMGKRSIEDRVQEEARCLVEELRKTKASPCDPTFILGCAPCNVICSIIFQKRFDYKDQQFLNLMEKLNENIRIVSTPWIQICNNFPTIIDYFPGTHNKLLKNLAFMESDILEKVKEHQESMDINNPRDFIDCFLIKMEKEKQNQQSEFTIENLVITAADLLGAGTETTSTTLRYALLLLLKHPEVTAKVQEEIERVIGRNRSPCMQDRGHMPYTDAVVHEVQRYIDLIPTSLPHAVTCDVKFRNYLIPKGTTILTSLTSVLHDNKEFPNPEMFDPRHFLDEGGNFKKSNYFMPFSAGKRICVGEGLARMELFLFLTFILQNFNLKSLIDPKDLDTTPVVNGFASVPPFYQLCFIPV

Cc1cccc(/C=N/N=C/c2cccc(C)c2)c1
IC50 (AMY2; enzyme activity, inhibitor): 132000 nM

Cc1csc(Nc2ccc(NC(=O)c3cc(S(N)(=O)=O)cc(C)c3C)cc2)n1
IC50 (CA9; enzyme activity, inhibitor): 174 nM

O=C(NCc1cc(O)c(O)c(Br)c1)c1ccno1
IC50 (rep papain-like protease; enzyme activity, inhibitor, FRET): 2140 nM

COc1ccc(Cl)cc1NC(=O)Nc1ccc(I)cn1
IC50 (CHEK1; enzyme activity, inhibitor): 1090 nM

O=C1Nc2ccccc2/C1=N/c1ccccc1Br
IC50 (PIK3CD; enzyme activity, inhibitor, ADP detection): 611 nM

N#Cc1cnc(NC(=O)Nc2cc(Cl)ccc2OC2CCCC(O)C2O)cn1 (stereo not drawn)
IC50 (CHEK1; enzyme activity, inhibitor): 10.6 nM

CC(=O)Nc1ccc(Cn2c(C(=O)Nc3ccc(S(N)(=O)=O)cc3)cc3sccc32)cc1
IC50 (CA9; enzyme activity, inhibitor): 7.41 nM

Nc1ncnc2c1c(Oc1cc(C(F)(F)F)ccn1)nn2C1CC1
IC50 (Cytochrome P450 2C19 (CYP2C19, Homo sapiens, UniProt P33261); enzyme activity, inhibitor; human, liver microsomes; 10 min): < 10000 nM and 5780 nM

CN(C)C(=O)c1cc2cnc(Nc3cncc(-c4ccc5c(=O)cc(N6CCOCC6)oc5c4)c3)nc2n1C1CCCC1
IC50 (CDK4 with cyclin D1; enzyme activity, inhibitor, radiometric): 5.9 nM

CC(C)c1cccc(C(C)C)c1N=C1C(=O)N(Cc2ccc(Br)cc2)c2ccccc21
IC50 (PIK3CA; enzyme activity, inhibitor, ADP detection): 177 nM

CN1CCN(C(=O)[C@H](CCCN[C@@H]2C[C@H]2c2ccc(F)cc2)NC(=O)c2ccc(-n3ccnn3)cc2)CC1
IC50 (Amine oxidase [flavin-containing] A (MAOA, Homo sapiens, UniProt P21397); enzyme activity, inhibitor; with preincubation): 26800 nM and > 25000 nM

Cn1nc2c(=O)n(C3CC3)ncc2c1[C@](O)(c1cnc(C(F)(F)F)c(Cl)c1)C(F)(F)F
IC50 (Cytochrome P450 2C9 (CYP2C9, Homo sapiens, UniProt P11712); enzyme activity, inhibitor; human, liver microsomes; pH 7.4): > 20000 nM

CN(C)C(=O)c1cc2cnc(Nc3ccc4c(=O)cc(N5CCNCC5)oc4c3)nc2n1C1CCCC1
IC50 (CDK4 with cyclin D1; enzyme activity, inhibitor, radiometric): 4.1 nM

Cc1cccc(N=C2C(=O)N(Cc3cccc(Cl)c3)c3ccccc32)c1
IC50 (PIK3CA; enzyme activity, inhibitor, ADP detection): 6 nM

CNC(=O)c1ccc(C(=O)N2CCN(CC(=O)c3cc(C)n(-c4ccc(S(N)(=O)=O)cc4)c3C)CC2)cc1F
IC50 (CA9; enzyme activity, inhibitor): 67.6 nM

Nc1ccc(/N=N/c2ccccc2)c(N)n1
IC50 (Transient receptor potential cation channel subfamily M member 8 (TRPM8, Homo sapiens, UniProt Q7Z2W7); ion current, antagonist, patch clamp): 338 nM

O=[N+]([O-])c1cccc(/C=N/N=C/c2cccc([N+](=O)[O-])c2)c1
IC50 (AMY2; enzyme activity, inhibitor): 395000 nM

CN(C)C(=O)c1cc2cnc(Nc3ccc(-c4ccc5c(=O)cc(N6CCNCC6)oc5c4)cc3)nc2n1C1CCCC1
IC50 (CDK4 with cyclin D1; enzyme activity, inhibitor, radiometric): 4.5 nM

OC1CCC(NCc2ccc3c(c2)Cc2c-3n[nH]c2-c2ccoc2)CC1 (stereo not drawn)
IC50 (CHEK1; enzyme activity, inhibitor): 272 nM

Cc1nc(SCC(=O)Nc2ccc(S(N)(=O)=O)cc2)[nH]c1Cc1ccc(O)cc1
IC50 (CA9; enzyme activity, inhibitor): 63 nM

COC(=O)Cc1ccc2c(c1)NC(=O)c1ccc(-c3cc[nH]c(=O)c3)cc1N2
IC50 (CHEK1; enzyme activity, inhibitor): 8.64 nM

Cc1ccc(-n2ncc(C(=O)NC[C@@]3(C4CC4)NC(=O)NC3=O)n2)cc1
IC50 (A disintegrin and metalloproteinase with thrombospondin motifs 7 (Homo sapiens, UniProt Q9UKP4); enzyme activity, inhibitor, FRET): < 50 nM

CC(C)c1cccc(C(C)C)c1N=C1C(=O)N(Cc2cccc(Cl)c2)c2ccccc21
IC50 (PIK3CG; enzyme activity, inhibitor, ADP detection): 8.44 nM

Cc1ccc(-c2[nH]nc3c2Cc2cc(CNC4CCC(O)CC4)ccc2-3)s1 (stereo not drawn)
IC50 (CHEK1; enzyme activity, inhibitor): 500 nM

Clc1ccc(C2(c3ccc(-c4ccnc5[nH]ccc45)cc3)CCNCC2)cc1
IC50 (Serine/threonine-protein kinase LATS2 (LATS2, Homo sapiens, UniProt Q9NRM7); enzyme activity, inhibitor, radiometric): 5 nM

N#C[C@@]12C[C@@H]1[C@@H](n1cnc3c(N[C@@H](C4CCC4)C4CC4)nc(I)nc31)[C@H](O)[C@@H]2O
IC50 (Cytochrome P450 3A4 (CYP3A4, Homo sapiens, UniProt P08684); enzyme activity, inhibitor): > 20000 nM and 35600 nM

NS(=O)(=O)c1ccc(NC(=O)CCN2CCCCC2C(=O)Nc2ccc(Cl)c(Cl)c2)cc1 (stereo not drawn)
IC50 (CA9; enzyme activity, inhibitor): 77 nM

Cc1ccc2oc(=O)cc(NCCO)c2c1
IC50 (Alpha-1B adrenergic receptor (ADRA1B, Homo sapiens, UniProt P35368, V197I); calcium signal, antagonist): 302000 nM

COc1ccc(Cl)cc1C(=O)NCCc1ccc(S(=O)(=O)NC(=O)NC2CCCCC2)cc1
IC50 (Solute carrier family 22 member 6 (SLC22A6, Homo sapiens, UniProt Q4U2R8, M31A); transporter uptake, inhibitor, fluorescence): 11400 nM

CCC1(C#N)CCN(c2nccc(-c3cnn4ncccc34)n2)CC1
IC50 (DYRK1A; cell-free assay, TR-FRET): 646 nM

O=C1C(=Nc2ccc(Cl)cc2)c2ccccc2N1Cc1cccc(Cl)c1
IC50 (PIK3CG; enzyme activity, inhibitor, ADP detection): 4.23 nM

COc1cc(/C=N/N=C/c2cc(OC)c(OC)c(OC)c2)cc(OC)c1OC
IC50 (AMY2; enzyme activity, inhibitor): 154000 nM

Cc1n[nH]c2ccc3nc(-c4ccc(C(=O)NCCN(C)C)cc4)c4c(c3c12)CCCC4
IC50 (Receptor-type tyrosine-protein kinase FLT3 (FLT3, Homo sapiens, UniProt P36888); enzyme activity, inhibitor): 54 nM

c1cnn2ncc(-c3ccnc(N4CCOCC4)n3)c2c1
IC50 (DYRK1A; cell-free assay, TR-FRET): 309 nM

O=C(CSc1nc2ccccc2cc1C=Nn1c(S)nnc1-c1ccccc1)NCCc1ccccc1
IC50 (PPO3 (Agaricus bisporus, UniProt C7FF04); enzyme activity, inhibitor): 11200 nM

CC1Cc2cc(S(N)(=O)=O)ccc2N1C(=O)CN1CCN(C(=O)c2ccc(O)cc2)CC1 (stereo not drawn)
IC50 (CA9; enzyme activity, inhibitor): 95 nM

CN(C)CCNC(=O)c1ccc(-c2nc3ccc4[nH]ncc4c3c3c2CCCC3)c(F)c1
IC50 (Receptor-type tyrosine-protein kinase FLT3 (FLT3, Homo sapiens, UniProt P36888, D835Y); enzyme activity, inhibitor): 39 nM

COc1cc2ncnc(N(C)c3ccc4c(c3)/C(=C/c3ccccc3)C(=O)N4C)c2cc1OC (mixture of isomers)
IC50 (PIK3CG; enzyme activity, inhibitor, ADP detection): 91.4 nM

COc1ccc(C(=O)NCc2cc(O)c(O)c(Br)c2)cc1
IC50 (Replicase polyprotein 1ab, main protease (rep, Porcine epidemic diarrhea virus, UniProt P0C6Y4); enzyme activity, inhibitor, FRET): 1170 nM

Cc1cc2c(OCC(O)CNC(C)(C)C)cccc2[nH]1 (stereo not drawn)
IC50 (Beta-2 adrenergic receptor (ADRB2, Homo sapiens, UniProt P07550); calcium signal, antagonist, fluorescence): 0.7 nM

Cc1cccc(N=C2C(=O)N(Cc3ccc(Br)cc3)c3ccccc32)c1
IC50 (PIK3CD; enzyme activity, inhibitor, ADP detection): 78 nM

Cc1nc(Nc2ccc3c(c2)/C(=C/c2ccccc2C)C(=O)N3C)c2ccccc2n1
IC50 (PIK3CD; enzyme activity, inhibitor, ADP detection): 142 nM

CN(C)CCN(C)c1ccc(Cl)cc1NC(=O)Nc1cnc(C#N)cn1
IC50 (CHEK1; enzyme activity, inhibitor): 11.3 nM

Cc1ccc(CN(C(=O)c2cc(S(N)(=O)=O)ccc2O)c2ccc3c(c2)OCCO3)s1
IC50 (CA9; enzyme activity, inhibitor): 442 nM

CC(C)(C)OC(=O)N1CCC(Oc2ccc(C#N)cc2NC(=O)Nc2cnc(C#N)cn2)C1 (stereo not drawn)
IC50 (CHEK1; enzyme activity, inhibitor): 1530 nM

CN(C)CCNC(=O)c1ccc(-c2nc3ccc4[nH]ncc4c3c3c2CC(C)(C)CC3)cc1
IC50 (Receptor-type tyrosine-protein kinase FLT3 (FLT3, Homo sapiens, UniProt P36888, ITD); enzyme activity, inhibitor): 104 nM

COc1cc(-c2ccc3c(c2)Nc2ccc(C(C)(C)C(=O)Nc4ccc(N5CCOCC5)cc4)cc2NC3=O)ccc1[N+](=O)[O-]
IC50 (CHEK1; enzyme activity, inhibitor): 5.26 nM

Cc1ccccc1C(=O)NCc1cc(O)c(O)c(Br)c1
IC50 (rep papain-like protease; enzyme activity, inhibitor, FRET): 3150 nM

O=C1C(=Nc2ccccc2I)c2ccccc2N1Cc1cccc(Cl)c1
IC50 (PIK3CA; enzyme activity, inhibitor, ADP detection): 59.2 nM

NS(=O)(=O)c1ccc(NC(=O)CSC2=NC(=Cc3ccco3)C(=O)N2c2ccccc2)cc1
IC50 (CA9; enzyme activity, inhibitor): 176 nM

Cc1nc(Nc2ccc3c(c2)/C(=C/c2ccccc2)C(=O)N3Cc2ccccc2)c2ccccc2n1
IC50 (PIK3CA; enzyme activity, inhibitor, ADP detection): 54.6 nM

Repeated from above:
OC1CCC(NCc2ccc3c(c2)Cc2c-3n[nH]c2-c2ccoc2)CC1 (stereo not drawn)
IC50 (CHEK1; enzyme activity, inhibitor): 272 nM

Cc1nc(SCC(=O)Nc2ccc(S(N)(=O)=O)cc2)[nH]c1Cc1ccc(O)cc1
IC50 (CA9; enzyme activity, inhibitor): 63 nM

COC(=O)Cc1ccc2c(c1)NC(=O)c1ccc(-c3cc[nH]c(=O)c3)cc1N2
IC50 (CHEK1; enzyme activity, inhibitor): 8.64 nM

Cc1ccc(-n2ncc(C(=O)NC[C@@]3(C4CC4)NC(=O)NC3=O)n2)cc1
IC50 (A disintegrin and metalloproteinase with thrombospondin motifs 7 (Homo sapiens, UniProt Q9UKP4); enzyme activity, inhibitor, FRET): < 50 nM
